Measured values pooled from the literature.
Parts stem from different laboratories: compare values within a part only. Several values in a cell are separate wells, animals, samples, runs or records.
Chain of UniProt P07333 (whole entry, looked up): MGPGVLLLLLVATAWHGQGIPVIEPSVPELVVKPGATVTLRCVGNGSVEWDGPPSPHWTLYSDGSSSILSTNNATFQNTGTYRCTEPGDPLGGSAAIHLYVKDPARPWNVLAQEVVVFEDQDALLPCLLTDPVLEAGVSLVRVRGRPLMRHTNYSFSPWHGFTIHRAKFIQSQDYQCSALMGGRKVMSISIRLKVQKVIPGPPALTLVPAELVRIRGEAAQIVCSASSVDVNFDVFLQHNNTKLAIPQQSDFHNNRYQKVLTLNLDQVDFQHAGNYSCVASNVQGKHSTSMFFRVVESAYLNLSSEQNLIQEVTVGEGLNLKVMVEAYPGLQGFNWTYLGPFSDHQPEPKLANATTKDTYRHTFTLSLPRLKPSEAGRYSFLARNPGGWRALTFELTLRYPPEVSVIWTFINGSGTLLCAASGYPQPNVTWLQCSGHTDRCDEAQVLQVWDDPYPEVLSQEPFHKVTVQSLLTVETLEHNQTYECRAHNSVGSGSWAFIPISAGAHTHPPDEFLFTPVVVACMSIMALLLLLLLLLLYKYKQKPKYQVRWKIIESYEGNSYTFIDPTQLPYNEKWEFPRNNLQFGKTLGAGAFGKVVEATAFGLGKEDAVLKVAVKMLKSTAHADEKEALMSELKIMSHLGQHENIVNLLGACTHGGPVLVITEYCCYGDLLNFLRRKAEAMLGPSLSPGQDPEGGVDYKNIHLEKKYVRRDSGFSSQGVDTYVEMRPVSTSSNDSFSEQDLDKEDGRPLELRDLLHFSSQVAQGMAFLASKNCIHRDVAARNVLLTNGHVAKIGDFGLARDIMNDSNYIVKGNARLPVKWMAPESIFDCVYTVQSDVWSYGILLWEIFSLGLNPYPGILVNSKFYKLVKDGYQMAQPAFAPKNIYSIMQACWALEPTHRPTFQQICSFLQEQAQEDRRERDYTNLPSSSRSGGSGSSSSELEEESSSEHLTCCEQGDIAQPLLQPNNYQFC
Chain of UniProt O00141 (whole entry, looked up): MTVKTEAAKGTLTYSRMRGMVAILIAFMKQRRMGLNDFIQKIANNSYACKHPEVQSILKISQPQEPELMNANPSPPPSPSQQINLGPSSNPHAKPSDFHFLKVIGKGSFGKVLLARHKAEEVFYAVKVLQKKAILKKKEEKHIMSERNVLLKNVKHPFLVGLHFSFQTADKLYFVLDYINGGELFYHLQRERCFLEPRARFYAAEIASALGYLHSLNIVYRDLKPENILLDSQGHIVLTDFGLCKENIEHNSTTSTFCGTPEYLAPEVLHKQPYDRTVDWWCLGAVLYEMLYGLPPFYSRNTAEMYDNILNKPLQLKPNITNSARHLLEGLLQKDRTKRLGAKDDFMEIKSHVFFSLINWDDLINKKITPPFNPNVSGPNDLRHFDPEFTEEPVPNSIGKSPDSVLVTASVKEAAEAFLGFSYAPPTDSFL
Chain of UniProt O14920 (whole entry, looked up): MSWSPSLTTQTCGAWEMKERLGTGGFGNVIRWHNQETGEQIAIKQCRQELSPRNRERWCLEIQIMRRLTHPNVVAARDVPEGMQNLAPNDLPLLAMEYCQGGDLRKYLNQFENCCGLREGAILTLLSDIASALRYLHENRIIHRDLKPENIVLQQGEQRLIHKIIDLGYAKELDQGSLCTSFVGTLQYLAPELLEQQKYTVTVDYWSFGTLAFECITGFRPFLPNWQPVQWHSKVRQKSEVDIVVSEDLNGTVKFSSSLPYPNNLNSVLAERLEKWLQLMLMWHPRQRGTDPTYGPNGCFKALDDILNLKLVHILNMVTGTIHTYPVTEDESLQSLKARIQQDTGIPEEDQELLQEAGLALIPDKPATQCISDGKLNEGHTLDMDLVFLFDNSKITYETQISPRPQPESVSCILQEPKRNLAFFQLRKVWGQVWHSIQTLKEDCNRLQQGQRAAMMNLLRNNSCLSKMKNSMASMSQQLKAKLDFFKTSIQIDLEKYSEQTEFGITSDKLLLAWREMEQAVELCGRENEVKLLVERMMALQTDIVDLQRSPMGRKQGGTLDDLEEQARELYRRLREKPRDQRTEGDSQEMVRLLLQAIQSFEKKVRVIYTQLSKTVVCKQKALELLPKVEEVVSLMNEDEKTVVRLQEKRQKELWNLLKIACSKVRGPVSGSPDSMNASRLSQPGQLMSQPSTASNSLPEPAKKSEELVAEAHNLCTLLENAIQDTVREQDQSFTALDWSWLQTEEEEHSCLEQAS
Chain of UniProt P54753 (whole entry, looked up): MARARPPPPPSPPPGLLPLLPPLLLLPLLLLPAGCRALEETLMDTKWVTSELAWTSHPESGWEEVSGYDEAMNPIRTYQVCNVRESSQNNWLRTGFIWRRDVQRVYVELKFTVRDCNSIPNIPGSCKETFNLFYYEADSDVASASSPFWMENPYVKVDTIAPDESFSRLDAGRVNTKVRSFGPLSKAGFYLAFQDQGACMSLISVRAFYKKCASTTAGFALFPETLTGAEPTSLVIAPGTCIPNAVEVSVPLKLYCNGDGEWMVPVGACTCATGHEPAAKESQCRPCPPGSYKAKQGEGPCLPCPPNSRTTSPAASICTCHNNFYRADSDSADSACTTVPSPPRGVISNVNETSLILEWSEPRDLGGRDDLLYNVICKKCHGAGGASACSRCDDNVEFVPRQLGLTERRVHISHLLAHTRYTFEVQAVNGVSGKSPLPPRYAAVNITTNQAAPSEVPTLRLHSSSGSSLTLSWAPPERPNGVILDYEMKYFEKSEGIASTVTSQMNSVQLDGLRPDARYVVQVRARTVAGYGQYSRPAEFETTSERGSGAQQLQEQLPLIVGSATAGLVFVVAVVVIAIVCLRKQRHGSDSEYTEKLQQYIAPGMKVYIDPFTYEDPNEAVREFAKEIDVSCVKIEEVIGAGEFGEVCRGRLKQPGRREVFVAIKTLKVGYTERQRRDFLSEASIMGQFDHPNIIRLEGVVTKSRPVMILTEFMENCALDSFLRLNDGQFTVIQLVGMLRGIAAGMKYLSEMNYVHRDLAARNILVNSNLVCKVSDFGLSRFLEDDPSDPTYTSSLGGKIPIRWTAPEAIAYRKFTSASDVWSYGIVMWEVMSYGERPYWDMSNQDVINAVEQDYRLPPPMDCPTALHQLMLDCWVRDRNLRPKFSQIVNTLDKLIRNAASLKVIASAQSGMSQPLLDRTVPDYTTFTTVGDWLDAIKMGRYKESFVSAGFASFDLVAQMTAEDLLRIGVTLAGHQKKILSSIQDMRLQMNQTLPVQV
Chain of UniProt Q00535 (whole entry, looked up): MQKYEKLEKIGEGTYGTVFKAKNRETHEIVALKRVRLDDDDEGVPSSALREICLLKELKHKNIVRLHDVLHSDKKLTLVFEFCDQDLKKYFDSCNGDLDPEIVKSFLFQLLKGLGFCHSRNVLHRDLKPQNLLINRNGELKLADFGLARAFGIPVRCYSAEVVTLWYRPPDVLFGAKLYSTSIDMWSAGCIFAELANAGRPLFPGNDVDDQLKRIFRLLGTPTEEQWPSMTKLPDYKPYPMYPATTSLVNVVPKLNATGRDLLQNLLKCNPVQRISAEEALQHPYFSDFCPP
Chain of UniProt O75460 (whole entry, looked up): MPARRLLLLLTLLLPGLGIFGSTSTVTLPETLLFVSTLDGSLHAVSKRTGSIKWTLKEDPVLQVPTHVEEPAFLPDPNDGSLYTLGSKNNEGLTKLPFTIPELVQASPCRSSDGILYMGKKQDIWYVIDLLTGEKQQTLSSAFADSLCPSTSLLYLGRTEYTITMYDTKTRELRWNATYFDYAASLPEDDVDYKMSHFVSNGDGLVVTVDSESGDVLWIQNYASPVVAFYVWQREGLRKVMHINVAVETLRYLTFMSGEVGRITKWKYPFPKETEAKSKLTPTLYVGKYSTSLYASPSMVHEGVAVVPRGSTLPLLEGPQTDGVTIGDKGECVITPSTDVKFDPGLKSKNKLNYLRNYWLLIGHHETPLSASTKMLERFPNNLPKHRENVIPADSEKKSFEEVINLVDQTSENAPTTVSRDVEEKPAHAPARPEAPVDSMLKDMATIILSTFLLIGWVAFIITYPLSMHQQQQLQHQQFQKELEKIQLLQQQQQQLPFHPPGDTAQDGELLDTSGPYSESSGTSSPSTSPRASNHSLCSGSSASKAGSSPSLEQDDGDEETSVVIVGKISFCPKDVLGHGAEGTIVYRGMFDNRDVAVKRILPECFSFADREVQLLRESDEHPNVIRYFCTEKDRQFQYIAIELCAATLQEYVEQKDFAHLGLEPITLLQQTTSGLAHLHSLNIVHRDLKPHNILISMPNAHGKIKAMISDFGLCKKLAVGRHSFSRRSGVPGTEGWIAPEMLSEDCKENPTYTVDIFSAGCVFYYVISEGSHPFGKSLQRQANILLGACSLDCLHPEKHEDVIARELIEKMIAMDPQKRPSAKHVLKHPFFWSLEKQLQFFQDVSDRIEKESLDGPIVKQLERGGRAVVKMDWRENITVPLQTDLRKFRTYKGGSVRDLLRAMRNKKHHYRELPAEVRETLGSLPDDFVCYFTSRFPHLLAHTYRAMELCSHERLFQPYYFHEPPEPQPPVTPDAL
Chain of UniProt P42680 (whole entry, looked up): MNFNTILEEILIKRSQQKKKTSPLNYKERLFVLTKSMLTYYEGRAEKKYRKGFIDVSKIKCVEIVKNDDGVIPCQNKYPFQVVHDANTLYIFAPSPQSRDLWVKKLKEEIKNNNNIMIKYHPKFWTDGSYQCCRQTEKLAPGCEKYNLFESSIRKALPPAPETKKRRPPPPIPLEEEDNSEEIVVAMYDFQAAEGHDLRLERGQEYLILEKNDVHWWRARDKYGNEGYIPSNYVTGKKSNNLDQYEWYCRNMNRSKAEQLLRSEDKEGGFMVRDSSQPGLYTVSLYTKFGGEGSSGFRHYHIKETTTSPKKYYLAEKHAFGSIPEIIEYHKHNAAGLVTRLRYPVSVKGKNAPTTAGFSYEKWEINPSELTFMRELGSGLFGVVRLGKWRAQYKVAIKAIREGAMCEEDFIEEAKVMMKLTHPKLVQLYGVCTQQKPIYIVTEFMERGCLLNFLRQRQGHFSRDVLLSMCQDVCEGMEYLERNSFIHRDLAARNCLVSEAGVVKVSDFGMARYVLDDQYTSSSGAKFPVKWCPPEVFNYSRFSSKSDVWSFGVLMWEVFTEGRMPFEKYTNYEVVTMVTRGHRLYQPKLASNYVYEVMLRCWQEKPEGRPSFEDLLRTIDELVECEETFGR

Set 1 — method: competition with immobilised ligand; concentration: 1 µM
SMILES: O=C(NCc1ncc(C(F)(F)F)cc1Cl)c1ccc2c(c1)C1(CCS(=O)(=O)CC1)[C@H](C1CC1)N2S(=O)(=O)c1ccc(F)cc1
Phosphatidylinositol 4-phosphate 5-kinase type-1 gamma (PIP5K1C, Homo sapiens, UniProt O60331); cell-free assay — remaining binding: 100%.
The remaining binding was 100% (Macrophage colony-stimulating factor 1 receptor (CSF1R, Homo sapiens, UniProt P07333); cell-free assay).
For Phosphatidylinositol 4-phosphate 5-kinase type-1 alpha (PIP5K1A, Homo sapiens, UniProt Q99755); cell-free assay: remaining binding read 100%.
Inhibitor of nuclear factor kappa-B kinase subunit beta (IKBKB, Homo sapiens, UniProt O14920); cell-free assay — remaining binding: 92%.
The remaining binding was 100% (Macrophage colony-stimulating factor 1 receptor, autoinhibited (CSF1R, Homo sapiens, UniProt P07333); cell-free assay).
It gave 89% for remaining binding (Serine/threonine-protein kinase Nek2 (NEK2, Homo sapiens, UniProt P51955); cell-free assay).
For Ephrin type-B receptor 3 (EPHB3, Homo sapiens, UniProt P54753); cell-free assay: remaining binding read 100%.
For Serine/threonine-protein kinase Sgk1 (SGK1, Homo sapiens, UniProt O00141); cell-free assay: remaining binding read 79%.
Casein kinase I isoform alpha-like (CSNK1A1L, Homo sapiens, UniProt Q8N752); cell-free assay — remaining binding: 95%.
Tyrosine-protein kinase ABL1, non-phosphorylated (ABL1, Homo sapiens, UniProt P00519); cell-free assay — remaining binding: 92%.
It gave 100% for remaining binding (Tyrosine-protein kinase Tec (TEC, Homo sapiens, UniProt P42680); binding).
For Serine/threonine-protein kinase/endoribonuclease IRE1 (ERN1, Homo sapiens, UniProt O75460); cell-free assay: remaining binding read 78%.
The remaining binding was 0% (Cyclin-dependent kinase 5 (CDK5, Homo sapiens, UniProt Q00535); cell-free assay).

Set 2 — cell line: mouse MPNST tumor cells; method: high-content nuclear imaging; item: cell number; concentration: 10 µM; time: 12 h; setting: mean of 2 replicates; reference: plate mean; direction: higher = more cells
For `CCc1c(-c2ccccc2)c(-c2ccccc2)nn1-c1ccccc1-c1cccc(OCC(=O)O)c1`, the nuclei count was 1.04 z-score.
For `COc1ccccc1OCC(O)CN1CCN(CC(=O)Nc2c(C)cccc2C)CC1` (stereo not drawn), the nuclei count was 0.563 z-score and 0.979 z-score and 0.845 z-score.
`Nc1ncnc2n[nH]c(Nc3ccc(F)cc3)c12` has a nuclei count of 1.79 z-score.
For `Cc1ncc([N+](=O)[O-])n1CC(C)O` (stereo not drawn), the nuclei count was 0.631 z-score.
`O=C(O)Cn1c(C(=O)Nc2nc(-c3ccccc3Cl)cs2)cc2ccccc21` gave a nuclei count of 1.24 z-score.
For `Cc1cc(N2C[C@@H](C)N[C@@H](C)C2)ncc1-c1ccc(-c2nc3c(ccn3C)c(=O)[nH]2)cc1`, the nuclei count was -4.96 z-score.

Set 3 — host: C57BL/6 CES1-/- mice, MC-38 tumour; dose: dose not given; together with: anti-PD-1; reference: initial
SMILES: CC(=O)N[C@@H](Cc1c[nH]c2ccccc12)C(=O)N[C@@H](CCC(=O)C=[N+]=[N-])C(=O)OC(C)C
day 23 after inoculation — body weight: 96.3% and 97.5% and 98.2% and 91.4% and 98.4% and 97% and 93.5%.
For day 84 after inoculation: body weight read 106% and 103%.
The body weight was 100% (day 10 after inoculation).

Set 4 — target: His6 tag; method: AlphaScreen counter screen; concentration: concentration not given
For `COc1ccc(Cl)cc1NC(=O)Nc1cc(C)nc2ccccc12`, the inhibition was 53.5%.
For `Cc1cc2ncc(-c3ccccc3)nc2cc1C`, the inhibition was -31.1%.
`CC1CCCCN1CCNc1ccc2nnc(-c3ccc(F)cc3)n2n1` (stereo not drawn) gave an inhibition of 7.45%.
For `CNC(=O)c1ccccc1Sc1ccc2c(/C=C/c3ccccn3)n[nH]c2c1`, the inhibition was -9.12%.
`O=C(O)CCCC(=O)NNC(=O)c1ccc(Cl)cc1` gave an inhibition of -4.2%.
With `COc1ccc(CNC(=O)Nc2ncc([N+](=O)[O-])s2)cc1` the inhibition was 5.35%.
The inhibition of `COc1cc(F)c(F)c(Nc2ccc(I)cc2F)c1NS(=O)(=O)C1(C[C@H](O)CO)CC1` is reported as 4.9%.
The inhibition of `O=C(O)c1ccc(-c2c[nH]c3ncc(-c4ccccc4)cc23)cc1C1CCCC1` is reported as 10.1%.

Excerpt of the above (set 1):
Phosphatidylinositol 4-phosphate 5-kinase type-1 gamma (PIP5K1C, Homo sapiens, UniProt O60331); cell-free assay — remaining binding: 100%.
For Serine/threonine-protein kinase Sgk1 (SGK1, Homo sapiens, UniProt O00141); cell-free assay: remaining binding read 79%.
